Assay results of several laboratories.
Lines come from different studies, so protocols differ. “And” joins repeats or separate records; there may be more than shown. ± marks the error that the study gave.
C3 C3dg, residues 955-1303: C3 C3dg 955-1303 (Homo sapiens, UniProt P01024)
Sequence of UniProt P01024 (whole entry, looked up): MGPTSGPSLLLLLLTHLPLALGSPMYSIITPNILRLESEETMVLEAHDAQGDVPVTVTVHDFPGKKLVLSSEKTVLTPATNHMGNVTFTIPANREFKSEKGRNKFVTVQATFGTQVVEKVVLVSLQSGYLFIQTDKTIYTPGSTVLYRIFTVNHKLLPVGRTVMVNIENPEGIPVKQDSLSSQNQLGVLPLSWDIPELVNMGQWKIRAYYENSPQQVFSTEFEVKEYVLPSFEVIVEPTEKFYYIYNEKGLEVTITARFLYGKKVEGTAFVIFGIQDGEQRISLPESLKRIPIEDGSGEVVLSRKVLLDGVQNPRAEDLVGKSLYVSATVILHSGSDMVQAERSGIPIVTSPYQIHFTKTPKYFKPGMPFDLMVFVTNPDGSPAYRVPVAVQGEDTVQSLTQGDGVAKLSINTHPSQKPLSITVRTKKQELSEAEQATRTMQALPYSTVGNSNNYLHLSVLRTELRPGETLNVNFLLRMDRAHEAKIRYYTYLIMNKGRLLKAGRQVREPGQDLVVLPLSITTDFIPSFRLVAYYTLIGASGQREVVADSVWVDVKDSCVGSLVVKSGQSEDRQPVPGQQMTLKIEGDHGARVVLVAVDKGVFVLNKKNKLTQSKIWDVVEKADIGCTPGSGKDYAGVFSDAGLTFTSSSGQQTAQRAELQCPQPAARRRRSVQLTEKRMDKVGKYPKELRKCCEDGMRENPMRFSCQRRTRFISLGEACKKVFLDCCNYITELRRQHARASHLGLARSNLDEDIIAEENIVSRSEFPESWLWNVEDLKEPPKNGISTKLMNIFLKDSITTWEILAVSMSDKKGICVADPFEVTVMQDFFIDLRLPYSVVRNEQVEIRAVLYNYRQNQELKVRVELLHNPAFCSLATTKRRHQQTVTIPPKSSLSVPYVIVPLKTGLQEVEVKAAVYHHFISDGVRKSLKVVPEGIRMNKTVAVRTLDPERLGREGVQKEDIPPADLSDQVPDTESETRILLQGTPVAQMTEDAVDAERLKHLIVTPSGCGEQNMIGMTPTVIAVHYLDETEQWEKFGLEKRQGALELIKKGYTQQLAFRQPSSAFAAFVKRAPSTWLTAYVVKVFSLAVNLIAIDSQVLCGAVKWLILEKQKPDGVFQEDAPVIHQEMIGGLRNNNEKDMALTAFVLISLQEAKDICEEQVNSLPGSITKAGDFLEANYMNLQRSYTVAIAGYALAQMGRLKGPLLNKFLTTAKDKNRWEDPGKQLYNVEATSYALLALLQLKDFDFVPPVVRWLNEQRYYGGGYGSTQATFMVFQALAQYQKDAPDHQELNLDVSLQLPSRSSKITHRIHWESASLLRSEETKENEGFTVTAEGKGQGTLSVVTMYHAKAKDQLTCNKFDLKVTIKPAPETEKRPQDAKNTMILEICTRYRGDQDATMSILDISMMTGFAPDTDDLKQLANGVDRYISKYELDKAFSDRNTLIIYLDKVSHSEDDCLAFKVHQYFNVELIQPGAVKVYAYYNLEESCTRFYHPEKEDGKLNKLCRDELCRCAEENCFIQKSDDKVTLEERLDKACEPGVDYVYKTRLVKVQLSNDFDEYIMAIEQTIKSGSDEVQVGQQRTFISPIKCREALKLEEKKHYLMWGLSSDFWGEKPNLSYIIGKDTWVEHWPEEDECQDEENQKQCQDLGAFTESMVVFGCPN
T1: ATRX ADD domain 167-289 K251R/F284Y (Homo sapiens); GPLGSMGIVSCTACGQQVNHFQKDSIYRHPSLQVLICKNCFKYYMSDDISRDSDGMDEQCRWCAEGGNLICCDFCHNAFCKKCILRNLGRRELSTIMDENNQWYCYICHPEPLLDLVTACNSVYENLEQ
B1: EFR3A 721-791 (Homo sapiens, UniProt Q14156); chain SNTEEITFEALKKAIDTSGMEEQEKEKRRLVIEKFQKAPFEEIAAQCESKANLLHDRLAQILELTIRPPPS
B2: BIK (Homo sapiens, UniProt Q13323); chain MSEVRPLSRDILMETLLYEQLLEPPTMEVLGMTDSEEDLDPMEDFDSLECMEGSDALALRLACIGDEMDVSLRAPRLAQLSEVAMHSLGLAFIYDQTEDIRDVLRSFMDGFTTLKENIMRFWRSPNPGSWVSCEQVLLALLLLLALLLPLLSGGLHLLLK
B3: Pigr 19-135 (Mus musculus, UniProt O70570); sequence looked up; chain KSPIFGPQEVSSIEGDSVSITCYYPDTSVNRHTRKYWCRQGASGMCTTLISSNGYLSKEYSGRANLINFPENNTFVINIEQLTQDDTGSYKCGLGTSNRGLSFDVSLEVSQVPELPS
B4: CFH domains 1108-1231 S1191L (Homo sapiens, UniProt P08603); sequence looked up; chain KCGPPPPIDNGDITSFPLSVYAPASSVEYQCQNLYQLEGNKRITCRNGQWSEPPKCLHPCVISREIMENYNIALRWTAKQKLYLRTGESVEFVCKRGYRLSSRSHTLRTTCWDGKLEYPTCAKR
B5: UNC5A 26-303 (Homo sapiens, UniProt Q6ZN44); chain QQSATVANPVPGANPDLLPHFLVEPEDVYIVKNKPVLLVCKAVPATQIFFKCNGEWVRQVDHVIERSTDGSSGLPTMEVRINVSRQQVEKVFGLEEYWCQCVAWSSSGTTKSQKAYIRIAYLRKNFEQEPLAKEVSLEQGIVLPCRPPEGIPPAEVEWLRNEDLVDPSLDPNVYITREHSLVVRQARLADTANYTCVAKNIVARRRSASAAVIVYVDGSWSPWSKWSACGLDCTHWRSRECSDPAPRNGGEECQGTDLDTRNCTSDLCVHTASGPEDV
B6: OTULIN 55-352 C129S (Homo sapiens, UniProt Q96BN8); sequence looked up; chain MYRAADEIEKEKELLIHERGASEPRLSVAPEMDIMDYCKKEWRGNTQKATCMKMGYEEVSQKFTSIRRVRGDNYSALRATLFQAMSQAVGLPPWLQDPELMLLPEKLISKYNWIKQWKLGLKFDGKNEDLVDKIKESLTLLRKKWAGLAEMRTAEARQIACDELFTNEAEEYSLYEAVKFLMLNRAIELYNDKEKGKEVPFFSVLLFARDTSNDPGQLLRNHLNQVGHTGGLEQVEMFLLAYAVRHTIQVYRLSKYNTEEFITVYPTDPPKDWPVVTLIAEDDRHYNIPVRVCEETSL
B7: MDM4 23-210 (Homo sapiens, UniProt O15151); chain GPLGSQINQVRPKLPLLKILHAAGAQGEMFTVKEVMHYLGQYIMVKQLYDQQEQHMVYCGGDLLGELLGRQSFSVKDPSPLYDMLRKNLVTLATATTDAAQTLALAQDHSMDIPSQDQLKQSAEESSTSRKRTTEDDIPTLPTSEHKCIHSREDEDLIENLAQDETSRLDLGFEEWDVAGLPWWFLGNLRSNY
B8: C1S 438-688 S632A (Homo sapiens, UniProt P09871); chain IIGGSDADIKNFPWQVFFDNPWAGGALINEYWVLTAAHVVEGNREPTMYVGSTSVQTSRLAKSKMLTPEHVFIHPGWKLLEVPEGRTNFDNDIALVRLKDPVKMGPTVSPICLPGTSSDYNLMDGDLGLISGWGRTEKRDRAVRLKAARLPVAPLRKCKEVKVEKPTADAEAYVFTPNMICAGGEKGMDSCKGDAGGAFAVQDPNDKTKFYAAGLVSWGPQCGTYGLYTRVKNYVDWIMKTMQENSTPRED
B9: CFH 1108-1231 W1183L (Homo sapiens, UniProt P08603); sequence looked up; chain KCGPPPPIDNGDITSFPLSVYAPASSVEYQCQNLYQLEGNKRITCRNGQWSEPPKCLHPCVISREIMENYNIALRLTAKQKLYSRTGESVEFVCKRGYRLSSRSHTLRTTCWDGKLEYPTCAKR
B10: Cacna1c 1647-1777 (Mus musculus, UniProt Q01815); sequence looked up; chain NALSLQAGLRTLHDIGPEIRRAISGDLTAEEELDKAMKEAVSAASEDDIFRRAGGLFGNHVTYYQSDSRGNFPQTFATQRPLHINKTGNNQADTESPSHEKLVDSTFTPSSYSSTGSNANINNANNTALGR
B11: NUB1 (Homo sapiens); chain GPGSMAQKKYLQAKLTQFLREDRIQLWKPPYTDENKKVGLALKDLAKQYSDRLECCENEVEKVIEEIRCKAIERGTGNDNYRTTGIATIEVFLPPRLKKDRKNLLETRLHITGRELRSKIAETFGLQENYIKIVINKKQLQLGKTLEEQGVAHNVKAMVLELKQSEEDARKNFQLEEEEQNEAKLKEKQIQRTKRGLEILAKRAAETVVDPEMTPYLDIANQTGRSIRIPPSERKALMLAMGYHEKGRAFLKRKEYGIALPCLLDADKYFCECCRELLDTVDNYAVLQLDIVWCYFRLEQLECLDDAEKKLNLAQKCFKNCYGENHQRLVHIKGNCGKEKVLFLRLYLLQGIRNYHSGNDVEAYEYLNKARQLFKELYIDPSKVDNLLQLGFTAQEARLGLRACDGNVDHAATHITNRREELAQIRKEEKEKKRRRLENIRFLKGMGYSTHAAQQILLSNPQMWWLNDSNPETDNRQESPSQENIDRLVYMGFDALVAEAALRVFRGNVQLAAQTLAHNGGSLPPELPLSPEDSLSPPATSPSDSAGTSSASTDEDMETEAVNEILEDIPEHEEDYLDSTLEDEEIIIAEYLSYVENRKSATKKN
B12: RAP1A (Homo sapiens, UniProt P62834); sequence looked up; chain MREYKLVVLGSGGVGKSALTVQFVQGIFVEKYDPTIEDSYRKQVEVDCQQCMLEILDTAGTEQFTAMRDLYMKNGQGFALVYSITAQSTFNDLQDLREQILRVKDTEDVPMILVGNKCDLEDERVVGKEQGQNLARQWCNCAFLESSAKSKINVNEIFYDLVRQINRKTPVEKKKPKKKSCLLL
B13: PLXNB1 RBD 1746-1852 (Homo sapiens, UniProt O43157); sequence looked up; chain YRPLTLNALLAVGPGAGEAQGVPVKVLDCDTISQAKEKMLDQLYKGVPLTQRPDPRTLDVEWRSGVAGHLILSDEDVTSEVQGLWRRLNTLQHYKVPDGATVALVPC
B14: NFE2L2 99-160 (Homo sapiens, UniProt Q16236); fluorescein label; chain GSANYSQVAHIPKSDALYFDDCMQLLAQTFPFVDDNEVSSATFQSLVPDIPGHIESPVFIATN
Sequence of UniProt Q9H160 (whole entry, looked up): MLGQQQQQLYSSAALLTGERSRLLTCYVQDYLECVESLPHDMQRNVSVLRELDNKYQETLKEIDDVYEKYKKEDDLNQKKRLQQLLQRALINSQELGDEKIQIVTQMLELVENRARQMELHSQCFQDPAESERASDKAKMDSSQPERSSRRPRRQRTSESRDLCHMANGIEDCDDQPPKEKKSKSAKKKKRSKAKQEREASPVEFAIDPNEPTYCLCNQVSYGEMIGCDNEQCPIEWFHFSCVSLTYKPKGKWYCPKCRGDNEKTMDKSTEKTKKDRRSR
Sequence of UniProt P52198 (whole entry, looked up): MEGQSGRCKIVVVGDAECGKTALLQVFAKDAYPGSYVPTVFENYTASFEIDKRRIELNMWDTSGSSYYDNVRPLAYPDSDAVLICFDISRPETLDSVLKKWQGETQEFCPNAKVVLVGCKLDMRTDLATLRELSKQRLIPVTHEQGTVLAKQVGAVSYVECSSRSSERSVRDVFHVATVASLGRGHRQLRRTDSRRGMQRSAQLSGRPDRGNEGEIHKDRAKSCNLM
Sequence of UniProt Q09472 (whole entry, looked up): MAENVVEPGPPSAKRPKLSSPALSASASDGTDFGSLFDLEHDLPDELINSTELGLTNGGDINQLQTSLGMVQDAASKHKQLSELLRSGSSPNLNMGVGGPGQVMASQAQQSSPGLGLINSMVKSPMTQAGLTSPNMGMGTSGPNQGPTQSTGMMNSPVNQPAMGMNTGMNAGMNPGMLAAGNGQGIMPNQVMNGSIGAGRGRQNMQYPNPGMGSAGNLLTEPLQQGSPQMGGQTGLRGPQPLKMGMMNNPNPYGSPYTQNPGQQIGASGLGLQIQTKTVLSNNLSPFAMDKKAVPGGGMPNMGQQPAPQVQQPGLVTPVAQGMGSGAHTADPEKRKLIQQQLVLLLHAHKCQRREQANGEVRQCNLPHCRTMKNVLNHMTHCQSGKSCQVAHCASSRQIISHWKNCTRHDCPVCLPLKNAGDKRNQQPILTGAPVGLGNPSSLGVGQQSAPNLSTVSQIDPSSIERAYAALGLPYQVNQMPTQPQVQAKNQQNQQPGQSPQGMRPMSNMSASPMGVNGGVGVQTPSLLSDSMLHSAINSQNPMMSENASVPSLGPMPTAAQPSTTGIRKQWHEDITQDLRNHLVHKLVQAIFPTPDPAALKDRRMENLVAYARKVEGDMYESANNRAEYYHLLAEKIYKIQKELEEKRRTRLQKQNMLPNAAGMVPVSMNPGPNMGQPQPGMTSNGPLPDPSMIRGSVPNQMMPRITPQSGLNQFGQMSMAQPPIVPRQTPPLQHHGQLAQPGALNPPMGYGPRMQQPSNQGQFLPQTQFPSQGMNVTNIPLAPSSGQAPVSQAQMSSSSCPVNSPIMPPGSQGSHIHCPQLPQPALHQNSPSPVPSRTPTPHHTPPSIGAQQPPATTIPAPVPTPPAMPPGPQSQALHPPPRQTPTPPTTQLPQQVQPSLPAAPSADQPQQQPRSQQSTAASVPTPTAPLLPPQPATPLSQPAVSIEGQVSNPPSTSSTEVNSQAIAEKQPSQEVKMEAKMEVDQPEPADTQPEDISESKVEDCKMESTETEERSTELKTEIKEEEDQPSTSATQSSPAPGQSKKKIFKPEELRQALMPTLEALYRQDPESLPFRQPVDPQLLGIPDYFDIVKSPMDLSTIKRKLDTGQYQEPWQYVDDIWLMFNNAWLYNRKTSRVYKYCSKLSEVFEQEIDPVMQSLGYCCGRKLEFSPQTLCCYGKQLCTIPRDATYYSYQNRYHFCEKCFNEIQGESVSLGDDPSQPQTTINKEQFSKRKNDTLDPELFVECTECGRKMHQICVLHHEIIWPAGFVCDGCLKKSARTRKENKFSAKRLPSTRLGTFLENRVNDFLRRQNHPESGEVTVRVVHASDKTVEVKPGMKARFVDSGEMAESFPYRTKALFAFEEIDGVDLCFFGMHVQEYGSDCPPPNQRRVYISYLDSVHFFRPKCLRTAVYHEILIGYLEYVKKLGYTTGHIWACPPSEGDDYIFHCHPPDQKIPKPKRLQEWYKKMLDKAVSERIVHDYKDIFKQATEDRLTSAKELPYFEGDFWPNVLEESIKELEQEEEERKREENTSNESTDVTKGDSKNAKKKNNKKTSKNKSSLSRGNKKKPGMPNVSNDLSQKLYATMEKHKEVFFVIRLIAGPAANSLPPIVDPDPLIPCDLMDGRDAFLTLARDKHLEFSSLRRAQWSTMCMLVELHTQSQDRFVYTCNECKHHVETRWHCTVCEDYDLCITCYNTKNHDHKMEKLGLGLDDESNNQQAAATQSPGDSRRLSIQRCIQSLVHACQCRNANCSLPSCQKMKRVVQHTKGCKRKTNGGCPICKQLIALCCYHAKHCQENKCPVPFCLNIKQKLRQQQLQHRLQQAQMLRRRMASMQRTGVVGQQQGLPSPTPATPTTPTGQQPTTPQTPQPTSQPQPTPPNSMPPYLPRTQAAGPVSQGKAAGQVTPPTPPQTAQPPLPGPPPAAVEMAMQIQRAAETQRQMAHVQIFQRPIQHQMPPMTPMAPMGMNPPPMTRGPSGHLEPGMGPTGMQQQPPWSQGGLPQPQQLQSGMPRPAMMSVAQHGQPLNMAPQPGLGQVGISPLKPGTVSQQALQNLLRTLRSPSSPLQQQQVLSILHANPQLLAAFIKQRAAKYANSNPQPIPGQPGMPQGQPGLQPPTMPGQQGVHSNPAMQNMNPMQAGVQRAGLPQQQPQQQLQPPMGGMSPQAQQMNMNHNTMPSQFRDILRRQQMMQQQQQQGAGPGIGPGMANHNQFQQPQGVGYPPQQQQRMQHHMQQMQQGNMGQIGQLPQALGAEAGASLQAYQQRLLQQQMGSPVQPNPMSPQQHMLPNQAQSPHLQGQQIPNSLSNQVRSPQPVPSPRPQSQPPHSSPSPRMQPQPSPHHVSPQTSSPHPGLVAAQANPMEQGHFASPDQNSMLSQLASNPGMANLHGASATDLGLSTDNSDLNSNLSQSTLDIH
Sequence of UniProt Q7Y175 (whole entry, looked up): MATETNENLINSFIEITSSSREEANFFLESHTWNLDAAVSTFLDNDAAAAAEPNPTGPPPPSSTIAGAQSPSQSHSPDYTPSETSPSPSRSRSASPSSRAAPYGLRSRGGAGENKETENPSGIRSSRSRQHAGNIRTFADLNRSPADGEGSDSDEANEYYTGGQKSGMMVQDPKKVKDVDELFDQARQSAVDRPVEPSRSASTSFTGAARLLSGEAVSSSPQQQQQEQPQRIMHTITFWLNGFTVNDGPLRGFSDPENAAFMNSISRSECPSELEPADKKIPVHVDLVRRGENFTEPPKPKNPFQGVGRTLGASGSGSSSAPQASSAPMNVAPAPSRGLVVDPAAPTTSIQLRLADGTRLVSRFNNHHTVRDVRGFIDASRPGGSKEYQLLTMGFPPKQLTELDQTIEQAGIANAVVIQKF

Substance | partner | assay | test system | conditions | Kd
petF ferredoxin (Synechocystis sp. PCC 6803, UniProt P27320) | narB R351K (Synechococcus sp. PCC 7942) | UV-visible difference titration | – | – | 1400 ± 600 nM
ARTKQTARAS (H3C1 1-10 K9A) | T1, ATRX ADD domain 167-289 K251R/F284Y (Homo sapiens) | ITC | peptide | – | 26800 nM
ARTKQTARKS (histone H3 2-11 (UniProt P68431); K4me2; sequence looked up) | ING2 199-261 (Homo sapiens, UniProt Q9H160) | ITC | peptide | – | 4200 nM and 8200 nM
EEQWAREIGAQLRRMADDLNAQYER (BBC3 BH3 peptide 68-92 (Homo sapiens); N-acetyl, C-terminal amide) | BCL2L1 fragment (Homo sapiens) | ITC | peptide | – | 3 nM
B1 (EFR3A 721-791) | TTC7A/FAM126A 1-308 | BLI | – | – | 0.718 nM
STAMBPL1 (Homo sapiens, UniProt Q96FJ0) | UBB mature (UniProt P0CG47) | ITC | – | – | 17300 ± 4300 nM
B2 (BIK) | BCL2L1 (Homo sapiens, UniProt Q07817-1) | FRET or BRET | – | not purified | 8000 nM
B3 (Pigr 19-135) | IgA Fc/J chain CH2-CH3 domains, dimeric 113-344 (Mus musculus) | SPR | – | – | 374 nM
B4 (CFH domains 1108-1231 S1191L) | C3 C3dg, residues 955-1303 | SPR | – | – | 1800 ± 200 nM
ARTKQTARKS (histone H3 1-10; K4me3) | ING2 189-262 E205A (Arabidopsis thaliana, UniProt B3H615) | ITC | peptide | – | 8560 ± 1340 nM
KLLITIHDRKEFAKFEEERMRAKWDTANNPLYKEATSTFTNITYRGT (ITGB3 742-788 A735M (Homo sapiens, UniProt P05106); sequence looked up) | Tln1 309-405 (Mus musculus, UniProt P26039) | NMR titration | – | – | 243000 nM
B5 (UNC5A 26-303) | Flrt2 35-362 (Mus musculus, UniProt Q8BLU0) | SPR | – | – | 8000 nM
WHRSYYTWNLAG (TR3-LAG peptide) | CD274 19-238 (Homo sapiens, UniProt Q9NZQ7) | SPR | peptide | – | 198 nM
B6 (OTULIN 55-352 C129S) | linear di-ubiquitin fragment | ITC | – | – | 830 nM
B7 (MDM4 23-210) | TP53 1-312 (UniProt P04637) | ITC | – | – | 8500 nM
SPTBN2 actin-binding domain T62I (sequence not shown) | ACTA1 F-actin (Oryctolagus cuniculus, UniProt P68135) | co-sedimentation | – | – | 2400 nM
PKPRPPRPLPVAP (PIK3R1 87-99 (Homo sapiens)) | FYN 82-144 (Homo sapiens, UniProt P06241) | ITC | peptide | – | 41300 nM

Substance | partner | assay | test system | conditions | Kd
B8 (C1S 438-688 S632A) | SERPING1 111-500 Q361A/N362A (Homo sapiens, UniProt P05155) | SPR | – | together with: Ca2+ | 21600 nM
PUX5 (Arabidopsis thaliana, UniProt Q7Y175) | CDC48A 1-463 (Arabidopsis thaliana, UniProt P54609) | BLI | – | 25 °C | 410 ± 30 nM
CDH1 fragment (Homo sapiens) (sequence not shown) | CTNNB1 (Homo sapiens, UniProt P35222) | BLI | – | – | 4.97 ± 0.79 nM
CALLLSAPRR (GOT2 (Gallus gallus); fluorescein label) | HSPA9 mature V482F (Homo sapiens, UniProt P38646) | FP | peptide | – | > 150000 nM
pertuzumab | ERBB2 23-646 (Homo sapiens, UniProt P04626) | SPR | – | – | 2.3 nM
B9 (CFH 1108-1231 W1183L) | C3 C3dg, residues 955-1303 | SPR | – | – | 5300 ± 200 nM
SCN2A fragment Y1916A (Homo sapiens) (sequence not shown) | CALM1 (Homo sapiens, UniProt P0DP23) | fluorescence titration | – | pH 7.4, 22 °C, together with: calcium | 109 nM
B10 (Cacna1c 1647-1777) | Jph2 1-440 S165M (Mus musculus, UniProt Q9ET78) | ITC | – | – | 5850 nM
JAZ10 C-terminal domain (Arabidopsis thaliana) | MYC3 5-242, Alexa Fluor 488 label (Arabidopsis thaliana, UniProt Q9FIP9) | MST | – | 200 nM, labelled protein | 90550 ± 640 nM
B11 (NUB1) | FAT10 GG-FAT10 full length, N-terminal 5-FAM (Homo sapiens) | FP | – | – | 176 ± 6.8 nM
Diaph1 (Mus musculus, UniProt O08808) | ACTA1/Capza1/Capzb CP-capped barbed end filament, Alexa-488 label (Oryctolagus cuniculus/Mus musculus) | CP detachment from filament, mf-TIRF | – | apparent, hyperbolic fit, ADP-Pi-actin, together with: Pi 50 mM | 71 nM
B12 (RAP1A) | PREX1 (Homo sapiens, UniProt Q8TCU6) | fluorescence titration | – | together with: mant-GTP 1 µM | 35000 ± 3000 nM
MMHVNNFPFRRHSWICFDVD (PDE4D 1-20; pS13) | AKAP6 P1400S (Homo sapiens, UniProt Q13023-1) | SPR | peptide | – | 2700 nM
B13 (PLXNB1 RBD 1746-1852) | RND2 1-227 (Homo sapiens, UniProt P52198) | SPR | – | – | 1390 ± 390 nM
PRPRPRPRPRPRPRPRPRPRPRPRPRPRPRPRPRPRPRPR ((PR)20 20 repeats; TAMRA label N-terminal) | TNPO1 W460A/W730A (Homo sapiens, UniProt Q92973-2) | fluorescence polarisation | peptide | – | 38.8 ± 5.1 nM
B14 (NFE2L2 99-160) | EP300 TAZ2 1723-1812 x (Homo sapiens, UniProt Q09472) | fluorescence titration | – | – | 12800 ± 10200 nM
